Results collected from several papers.
Numbered parts are unrelated; each lists some results of a single study.

Study 1
Target: Fragile X messenger ribonucleoprotein 1, C-terminal low-complexity region (Fmr1, Mus musculus, UniProt P35922)
Method: RNA Bind-n-Seq
Form: RNA
Medium: in vitro
Concentration: 200 nM
Notes: whole 134-nt RNA, ends assumed
Added: 150 mM KCl
Relative to: input library
Reading: higher = stronger binding
Constant ends, left off below: GGGAGUUCUACAGUCCGACGAUC … UGGAAUUCUCGGGUGUCAAGG
With `CAAGUCCUGUGCUACACAUCGUAUGUACCGAAUCGGGUUUUUGGGUGGGUUUGGGAAAGUAUUAUGUUACGCCGUUCGGAUCUGCACUUC` the log2 enrichment was 1.13.
`CAAGUCCUGUGCUACACAUCGUAUGUACCGAAUCGGGAAAAAAAGGGAGGGUGGGAAAGUAUUAUGUUACGCCGUUCGGAUCUGCACUUC` gave a log2 enrichment of 0.866.
The log2 enrichment of `UCAAGUCCUGUGCUACACAUCGUAUGUACCGAAUCGGUUUGGUUUGGGUUUGGGAAAGUAUUAUGUUACGCCGUUCGGAUCUGCACUUCC` is reported as -0.552.
`UCCUGUGCUACACAUCGUAUGUACCGAAUCGGGAAAGGGUUUUUUUGGGAAAAAAAGGGAAAGUAUUAUGUUACGCCGUUCGGAUCUGCA` has a log2 enrichment of -0.32.
With `UCAAGUCCUGUGCUACACAUCGUAUGUACCGAAUCGGUUUGGUUUUUUUGGAGGAAAGUAUUAUGUUACGCCGUUCGGAUCUGCACUUCC` the log2 enrichment was -0.237.
For `CCUGUGCUACACAUCGUAUGUACCGAAUCGGGGUUUUUUGGGGUUUUUUGGGUUUUUUGGAAAGUAUUAUGUUACGCCGUUCGGAUCUGC`, the log2 enrichment was -0.0541.
For `UCCUGUGCUACACAUCGUAUGUACCGAAUCGGGGCCCCCCGGCCCCCCGGCCCCCCGGGAAAGUAUUAUGUUACGCCGUUCGGAUCUGCA`, the log2 enrichment was -0.428.
`CUGUGCUACACAUCGUAUGUACCGAAUCGGUUUUUUUGGGUUUUUUUGGGGUUUUUUUGGGGAAAGUAUUAUGUUACGCCGUUCGGAUCU` gave a log2 enrichment of -0.22.
For `AAGUCCUGUGCUACACAUCGUAUGUACCGAAUCGGGCCCCGGGCCCCGGGCCCCGGGAAAGUAUUAUGUUACGCCGUUCGGAUCUGCACU`, the log2 enrichment was -0.819.
`AAGUCCUGUGCUACACAUCGUAUGUACCGAAUCGGUUUUGGGUUUUGGUUUUGGGGAAAGUAUUAUGUUACGCCGUUCGGAUCUGCACUU` has a log2 enrichment of -0.566.

Study 2
Target: PABPC1L2, full length, GST fusion (mouse, UniProt A0ABA7IW68)
Method: RNAcompete
Form: RNA
Medium: in vitro
Concentration: 20 nM
Notes: 7-mer, probes averaged, single round
Relative to: mean of 7-mers
Reading: higher = stronger binding
Construct (chain): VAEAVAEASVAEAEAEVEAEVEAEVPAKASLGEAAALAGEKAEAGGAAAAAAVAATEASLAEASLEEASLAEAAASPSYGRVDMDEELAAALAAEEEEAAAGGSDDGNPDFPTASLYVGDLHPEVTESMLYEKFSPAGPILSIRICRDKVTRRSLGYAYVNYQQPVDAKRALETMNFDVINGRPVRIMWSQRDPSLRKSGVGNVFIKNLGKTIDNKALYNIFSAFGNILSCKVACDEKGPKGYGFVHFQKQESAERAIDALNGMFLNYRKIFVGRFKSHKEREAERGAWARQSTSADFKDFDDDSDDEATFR
The 7-mer Z-score of `AUCUCUU` is reported as -0.351.
For `AGAACCC`, the 7-mer Z-score was -0.244.
`GCCUCGU` gave a 7-mer Z-score of -0.385.
For `UACUUAC`, the 7-mer Z-score was -0.188.
`GUACGAG` gave a 7-mer Z-score of -0.13.
The 7-mer Z-score of `CCACUCA` is reported as -0.284.
`ACAAUUC` has a 7-mer Z-score of 0.017.
With `UAAGCCC` the 7-mer Z-score was -0.246.
`GGGAGAG` gave a 7-mer Z-score of 0.148.
For `UCGUUCU`, the 7-mer Z-score was -0.447.
`CAAGGCU` has a 7-mer Z-score of -0.101.
`UCUGAUU` has a 7-mer Z-score of -0.306.
`ACUUUCC` has a 7-mer Z-score of -0.284.
For `GGAGUCU`, the 7-mer Z-score was -0.342.
`GAAUAGG` gave a 7-mer Z-score of 0.0986.
For `CCUCUCU`, the 7-mer Z-score was -0.367.
With `UCAGUAG` the 7-mer Z-score was -0.11.
For `UUCUCUU`, the 7-mer Z-score was -0.481.
`GCUCUGA` gave a 7-mer Z-score of -0.264.
For `UGCCCCC`, the 7-mer Z-score was -0.389.
The 7-mer Z-score of `AAUUACG` is reported as 0.254.

Study 3
Target: RNA binding protein fox-1 homolog 2, RRM domain, GST-SBP tag (RBFOX2, Homo sapiens, UniProt O43251-10, residues 100-194)
Method: RNA Bind-n-Seq
Form: RNA
Medium: in vitro
Concentration: 365 nM
Notes: natural RNA segment, single round, ends assumed
Relative to: no-protein control
Reading: higher = stronger binding
Constant ends, left off below: GGGAGUUCUACAGUCCGACGAUC … UGGAAUUCUCGGGUGCCAA
Target sequence (chain): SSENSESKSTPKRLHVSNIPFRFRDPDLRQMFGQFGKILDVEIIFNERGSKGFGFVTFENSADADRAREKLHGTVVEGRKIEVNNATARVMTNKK
`AUUACCUCACUCAUUCACAUGUGAGCGACACGCAGACAUCCGCGAGGGCCAGCGUCACCAGACCAGCUGCGGGACAAACCACUCAGACUGCUUGUAGGACAAAUACUUCU`: “RBNS enrichment (R)” 0.368.
For `UCUCAAAUGGAUCUCGAAGUUCUCUAGUAAGGAGUCCUAAGGAUGACAUGUAUUGGGCCACUAGCAGGGAUUGAAAACAUUUUAAAAGAAAUCCUUUUUCUUAGGAGUAA`, “RBNS enrichment (R)” read 0.517.
For `UUCAAAGUGCCAAUGAUAGAGUCAACAGGAAGGUUAAUGUUGGAAACACAAUCAGGUGUGGAUUGGUGCUACUUUGAACAAAAGGUCCCCCUGUGGUCUUUUGUUCAACA`, “RBNS enrichment (R)” read 0.469.
For `UCGGUCAGAAGCCCACAGACCCGGAAGUUACCUUUCUUCCCGCCUCCCUGGACCAUAGAAGAGAUGUCACUCCUCUCUGGGUUUUAGUGGAGGGAGGGAGGCCUUCCAUU`, “RBNS enrichment (R)” read 0.19.
For `AUUCAGCAAGGCGCUAACUUGCUUAAAUGUGAAUUACUAACUUCUAAAACUGUAAUUUGAUUCACAUCUUUUCAAAUGGAGUUGGAGUUGAUUCAUAUUACAAUAUUUGU`, “RBNS enrichment (R)” read 0.285.
`GGAGCAAUUUGCACAUGUAACAUAGAUUUAUGUAAUGCUUUAUGUUUAAAAACAUUCCCCAAUUAUCUUAUUUAAUUUUUGCAAUUAUUCUAAUUUUAUAUAUAGAGAAA` — result for “RBNS enrichment (R)”: 1.24.
Under “RBNS enrichment (R)”, `AGUCUACAGUAAGAAUGCCUGCUUCCAAGACUCAGAUACAUAGGGACGUUUUUACCCGUUCCGUAGACUCUGUAACUGUCAGCCCAGUUUGCCUCUGCUGACUCCUGGCA` is recorded as 0.383.
`UGUGUGUGUGCACGCGCAGUGUCCAUCAGUAUCAGUGCCUGCCUGAGUUAGGAAAAUUACAUUCCUGGUUCUGUAUUGAGGAGAAGGAUGUAUAAAGCAACAUGAAACAU` — result for “RBNS enrichment (R)”: 1.04.
`UAGGAUUCAAUAGUAUUCACUAACUGCUUAUUACAUGAGCAAUUUCAUCAAAUCUCCAAACUCUUAAAGGAUGCUUUCGGAAAACACGCUGUAUACCUAGAUGAUGACUA`: “RBNS enrichment (R)” 0.236.
`GUGGGCUGAAAAACGCCACACUCAUUUCAAGGGGCAAUGUCUGGGGUUUAGAAAUUCAUUUAUAACUGGUUCUCUGAUGUGGGAAAUCCUGAUUCUGUCCCGGGUUCUUU`: “RBNS enrichment (R)” 0.983.
For `UCCAGCUGGGUGUCUGGAGGGAAGAGGGCAGAGGAGGGUCAUGUCCCUUCAGCUGGGGGAGGGGCCCAGUGAGCUCCACGUGGCUUUUUCCCAAAGGGAGCAAGAGGGAA`, “RBNS enrichment (R)” read 0.463.
`CCUUAAGGACAAUUAUUCUUAAUAAUGCUUAUAGAAAAUGUUCUCUAAUUAAACAUGCCAAAAGGAAAAAGUAAGAGAAAGAGGGAGCAAGAAGAAAAUGGAAGAAAAAG` — result for “RBNS enrichment (R)”: 0.643.

Study 4
Target: Sal-like protein 4, full length isoform A (SALL4, Homo sapiens, UniProt Q9UJQ4, residues 1-1053)
UniProt Q9UJQ4, sequence (whole entry, looked up): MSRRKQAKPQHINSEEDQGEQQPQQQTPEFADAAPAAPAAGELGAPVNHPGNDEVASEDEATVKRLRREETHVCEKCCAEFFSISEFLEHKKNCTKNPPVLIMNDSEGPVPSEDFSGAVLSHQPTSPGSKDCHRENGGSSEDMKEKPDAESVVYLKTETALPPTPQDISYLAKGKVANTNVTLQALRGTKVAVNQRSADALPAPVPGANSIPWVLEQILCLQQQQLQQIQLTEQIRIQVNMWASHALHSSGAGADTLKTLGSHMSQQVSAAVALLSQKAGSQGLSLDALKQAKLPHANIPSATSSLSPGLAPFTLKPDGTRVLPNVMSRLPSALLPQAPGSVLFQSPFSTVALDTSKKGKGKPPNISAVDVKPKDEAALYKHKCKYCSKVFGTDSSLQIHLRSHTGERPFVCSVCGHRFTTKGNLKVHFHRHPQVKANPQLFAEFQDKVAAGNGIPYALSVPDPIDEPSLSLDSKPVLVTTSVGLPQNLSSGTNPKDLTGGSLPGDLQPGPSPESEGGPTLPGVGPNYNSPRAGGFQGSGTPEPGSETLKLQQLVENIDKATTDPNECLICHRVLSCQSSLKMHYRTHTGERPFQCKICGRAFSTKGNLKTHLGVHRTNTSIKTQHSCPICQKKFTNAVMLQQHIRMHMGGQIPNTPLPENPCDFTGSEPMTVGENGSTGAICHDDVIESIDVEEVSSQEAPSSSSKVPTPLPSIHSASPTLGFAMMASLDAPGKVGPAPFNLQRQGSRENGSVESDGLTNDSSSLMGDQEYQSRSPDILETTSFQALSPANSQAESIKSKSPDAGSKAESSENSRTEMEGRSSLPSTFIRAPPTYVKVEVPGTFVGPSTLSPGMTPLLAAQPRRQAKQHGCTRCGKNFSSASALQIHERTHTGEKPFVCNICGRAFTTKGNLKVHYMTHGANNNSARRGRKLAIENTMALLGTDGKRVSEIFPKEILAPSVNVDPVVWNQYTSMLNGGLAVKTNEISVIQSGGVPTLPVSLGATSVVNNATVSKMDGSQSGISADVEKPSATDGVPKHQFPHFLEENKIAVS
Method: universal PBM
Form: double-stranded DNA, one strand shown
Medium: in vitro
Concentration: 600 nM
Notes: 8-mer, flanks averaged, mean of replicates
Reading: higher = stronger binding
With `ACACGGCA` the E-score was -0.189.
The E-score of `GACTACAC` is reported as 0.13.
With `GTGACCGA` the E-score was -0.141.
With `CTCGCCAG` the E-score was -0.287.
`GAAATTAA` has an E-score of 0.378.
`AGCAAACG` has an E-score of -0.146.
`GAATTATC` has an E-score of 0.273.
For `GGTGAATA`, the E-score was 0.0962.
`GGATGGGA` gave an E-score of -0.157.
The E-score of `CACTCCCC` is reported as -0.194.
With `AACCCCGT` the E-score was -0.185.
The E-score of `CGCTGTAG` is reported as -0.181.
`TAGCAACA` has an E-score of 0.187.
With `GGGGTGCA` the E-score was -0.276.
`CCGTGGAC` gave an E-score of -0.274.
For `CGCATTGA`, the E-score was -0.00229.
With `CATTAGGC` the E-score was -0.0768.
The E-score of `CCCGAACC` is reported as -0.346.

Study 5
Target: Histone acetyltransferase KAT6A, winged helix 1, GST fusion (KAT6A, Homo sapiens, UniProt Q92794, residues 1-85)
Method: protein binding microarray
Form: double-stranded DNA, one strand shown
Medium: in vitro
Concentration: not given
Notes: 8-mer, flanks averaged, mean of 2 arrays, mostly near background
Relative to: not given
Reading: higher = stronger binding
Construct (chain): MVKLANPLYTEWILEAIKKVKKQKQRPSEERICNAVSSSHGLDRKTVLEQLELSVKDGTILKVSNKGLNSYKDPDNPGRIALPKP
`CTTTCCCA` has an E-score of -0.229.
`ACGCCGTG` gave an E-score of 0.391.
`GCGATCCA` gave an E-score of 0.0313.
The E-score of `GGTTGGAA` is reported as -0.0914.
For `CCATTGCC`, the E-score was 0.0147.
With `ATGTCCGA` the E-score was 0.0536.
With `CGTATGCA` the E-score was 0.0709.
For `TGACGACA`, the E-score was -0.256.
For `GGAACCAC`, the E-score was 0.0346.
`CTCGCTGA` gave an E-score of 0.0609.
With `AGCTTTGC` the E-score was -0.0354.
`ACAGCACG` has an E-score of 0.042.
`ACACCATA` gave an E-score of -0.078.
The E-score of `AGACCGCG` is reported as 0.345.
The E-score of `CTGACGCA` is reported as 0.174.
For `CCAACAAG`, the E-score was -0.272.
`ACCTGTGG` gave an E-score of -0.27.
`AGCTTTAG` gave an E-score of -0.148.
`AGGGCTCA` has an E-score of -0.145.
The E-score of `AGTCAATC` is reported as -0.133.
`TTATATAA` has an E-score of -0.0505.
The E-score of `GGAAACGA` is reported as -0.111.
`GCGTACAC` has an E-score of 0.184.
`CCTAAGGC` gave an E-score of -0.076.
The E-score of `ATCCGGAA` is reported as -0.0289.

For quick reference, copied from above (study 2):
`GUACGAG` gave a 7-mer Z-score of -0.13.
The 7-mer Z-score of `CCACUCA` is reported as -0.284.
`ACAAUUC` has a 7-mer Z-score of 0.017.
With `UAAGCCC` the 7-mer Z-score was -0.246.
`GGGAGAG` gave a 7-mer Z-score of 0.148.
For `UCGUUCU`, the 7-mer Z-score was -0.447.
`CAAGGCU` has a 7-mer Z-score of -0.101.
`UCUGAUU` has a 7-mer Z-score of -0.306.
`ACUUUCC` has a 7-mer Z-score of -0.284.
For `GGAGUCU`, the 7-mer Z-score was -0.342.
`GAAUAGG` gave a 7-mer Z-score of 0.0986.
For `CCUCUCU`, the 7-mer Z-score was -0.367.
